Measurements collected from several papers.
Every numbered part comes from another study and shows a few of its results, in no order. Several values in a cell are separate wells, animals, samples, runs or records.
Sequence of UniProt P78356 (whole entry, looked up): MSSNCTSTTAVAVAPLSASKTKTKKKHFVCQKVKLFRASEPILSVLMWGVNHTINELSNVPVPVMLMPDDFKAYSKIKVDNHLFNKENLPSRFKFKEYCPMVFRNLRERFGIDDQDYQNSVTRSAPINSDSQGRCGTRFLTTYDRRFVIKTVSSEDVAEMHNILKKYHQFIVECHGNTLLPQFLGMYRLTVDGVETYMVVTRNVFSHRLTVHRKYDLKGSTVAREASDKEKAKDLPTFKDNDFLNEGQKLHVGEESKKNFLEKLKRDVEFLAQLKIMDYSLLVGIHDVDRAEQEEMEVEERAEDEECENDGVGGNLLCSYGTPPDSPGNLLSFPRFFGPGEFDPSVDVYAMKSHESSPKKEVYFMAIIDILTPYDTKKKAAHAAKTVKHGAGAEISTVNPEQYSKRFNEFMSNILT
Sequence of UniProt Q96NX5 (whole entry, looked up): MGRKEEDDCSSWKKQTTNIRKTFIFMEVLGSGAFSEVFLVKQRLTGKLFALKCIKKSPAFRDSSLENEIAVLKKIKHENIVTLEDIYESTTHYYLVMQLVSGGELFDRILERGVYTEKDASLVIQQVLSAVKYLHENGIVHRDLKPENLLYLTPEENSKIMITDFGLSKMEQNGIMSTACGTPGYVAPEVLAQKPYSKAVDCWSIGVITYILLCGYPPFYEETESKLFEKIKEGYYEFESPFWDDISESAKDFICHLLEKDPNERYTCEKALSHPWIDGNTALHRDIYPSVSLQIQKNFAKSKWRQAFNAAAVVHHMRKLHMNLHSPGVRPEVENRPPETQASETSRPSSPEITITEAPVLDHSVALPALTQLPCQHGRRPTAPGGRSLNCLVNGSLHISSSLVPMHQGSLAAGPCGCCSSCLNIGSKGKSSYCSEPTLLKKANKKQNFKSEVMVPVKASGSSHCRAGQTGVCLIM
Sequence of UniProt Q13188 (whole entry, looked up): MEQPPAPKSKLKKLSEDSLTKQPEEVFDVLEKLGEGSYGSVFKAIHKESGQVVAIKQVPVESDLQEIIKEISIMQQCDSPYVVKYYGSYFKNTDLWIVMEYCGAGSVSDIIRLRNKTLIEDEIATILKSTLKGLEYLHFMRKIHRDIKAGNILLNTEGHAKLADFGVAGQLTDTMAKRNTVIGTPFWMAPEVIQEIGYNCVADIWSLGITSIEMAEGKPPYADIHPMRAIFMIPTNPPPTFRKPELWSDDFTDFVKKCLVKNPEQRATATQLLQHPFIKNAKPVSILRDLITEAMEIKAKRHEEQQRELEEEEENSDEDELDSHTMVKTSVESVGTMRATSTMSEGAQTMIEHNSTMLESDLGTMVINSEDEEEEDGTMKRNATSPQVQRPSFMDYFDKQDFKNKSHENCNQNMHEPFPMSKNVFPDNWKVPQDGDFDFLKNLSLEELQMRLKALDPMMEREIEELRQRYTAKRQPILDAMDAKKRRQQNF
Sequence of UniProt Q8NEB9 (whole entry, looked up): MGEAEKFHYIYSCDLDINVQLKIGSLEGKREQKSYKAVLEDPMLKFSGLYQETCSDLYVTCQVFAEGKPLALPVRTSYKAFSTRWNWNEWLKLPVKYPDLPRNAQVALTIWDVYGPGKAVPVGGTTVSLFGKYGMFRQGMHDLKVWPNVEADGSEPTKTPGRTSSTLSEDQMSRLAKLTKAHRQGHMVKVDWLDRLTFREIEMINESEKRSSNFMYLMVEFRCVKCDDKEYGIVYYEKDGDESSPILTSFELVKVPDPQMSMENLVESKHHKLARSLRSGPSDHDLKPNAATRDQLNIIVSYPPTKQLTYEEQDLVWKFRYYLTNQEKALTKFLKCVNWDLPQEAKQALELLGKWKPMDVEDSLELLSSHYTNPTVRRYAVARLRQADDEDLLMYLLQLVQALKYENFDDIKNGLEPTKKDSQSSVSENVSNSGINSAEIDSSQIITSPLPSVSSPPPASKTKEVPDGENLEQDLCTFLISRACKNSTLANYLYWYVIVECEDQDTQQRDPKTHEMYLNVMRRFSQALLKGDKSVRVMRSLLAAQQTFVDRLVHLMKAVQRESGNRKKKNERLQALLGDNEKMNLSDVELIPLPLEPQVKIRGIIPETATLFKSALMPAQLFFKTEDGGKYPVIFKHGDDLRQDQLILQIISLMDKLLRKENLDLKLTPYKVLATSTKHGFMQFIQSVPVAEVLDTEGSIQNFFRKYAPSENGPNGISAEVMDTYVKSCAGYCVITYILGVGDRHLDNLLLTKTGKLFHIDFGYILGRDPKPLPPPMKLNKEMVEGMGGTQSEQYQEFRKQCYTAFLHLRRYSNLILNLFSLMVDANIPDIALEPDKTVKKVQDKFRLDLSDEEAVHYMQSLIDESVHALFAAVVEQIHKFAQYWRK
Sequence of UniProt Q04912 (whole entry, looked up): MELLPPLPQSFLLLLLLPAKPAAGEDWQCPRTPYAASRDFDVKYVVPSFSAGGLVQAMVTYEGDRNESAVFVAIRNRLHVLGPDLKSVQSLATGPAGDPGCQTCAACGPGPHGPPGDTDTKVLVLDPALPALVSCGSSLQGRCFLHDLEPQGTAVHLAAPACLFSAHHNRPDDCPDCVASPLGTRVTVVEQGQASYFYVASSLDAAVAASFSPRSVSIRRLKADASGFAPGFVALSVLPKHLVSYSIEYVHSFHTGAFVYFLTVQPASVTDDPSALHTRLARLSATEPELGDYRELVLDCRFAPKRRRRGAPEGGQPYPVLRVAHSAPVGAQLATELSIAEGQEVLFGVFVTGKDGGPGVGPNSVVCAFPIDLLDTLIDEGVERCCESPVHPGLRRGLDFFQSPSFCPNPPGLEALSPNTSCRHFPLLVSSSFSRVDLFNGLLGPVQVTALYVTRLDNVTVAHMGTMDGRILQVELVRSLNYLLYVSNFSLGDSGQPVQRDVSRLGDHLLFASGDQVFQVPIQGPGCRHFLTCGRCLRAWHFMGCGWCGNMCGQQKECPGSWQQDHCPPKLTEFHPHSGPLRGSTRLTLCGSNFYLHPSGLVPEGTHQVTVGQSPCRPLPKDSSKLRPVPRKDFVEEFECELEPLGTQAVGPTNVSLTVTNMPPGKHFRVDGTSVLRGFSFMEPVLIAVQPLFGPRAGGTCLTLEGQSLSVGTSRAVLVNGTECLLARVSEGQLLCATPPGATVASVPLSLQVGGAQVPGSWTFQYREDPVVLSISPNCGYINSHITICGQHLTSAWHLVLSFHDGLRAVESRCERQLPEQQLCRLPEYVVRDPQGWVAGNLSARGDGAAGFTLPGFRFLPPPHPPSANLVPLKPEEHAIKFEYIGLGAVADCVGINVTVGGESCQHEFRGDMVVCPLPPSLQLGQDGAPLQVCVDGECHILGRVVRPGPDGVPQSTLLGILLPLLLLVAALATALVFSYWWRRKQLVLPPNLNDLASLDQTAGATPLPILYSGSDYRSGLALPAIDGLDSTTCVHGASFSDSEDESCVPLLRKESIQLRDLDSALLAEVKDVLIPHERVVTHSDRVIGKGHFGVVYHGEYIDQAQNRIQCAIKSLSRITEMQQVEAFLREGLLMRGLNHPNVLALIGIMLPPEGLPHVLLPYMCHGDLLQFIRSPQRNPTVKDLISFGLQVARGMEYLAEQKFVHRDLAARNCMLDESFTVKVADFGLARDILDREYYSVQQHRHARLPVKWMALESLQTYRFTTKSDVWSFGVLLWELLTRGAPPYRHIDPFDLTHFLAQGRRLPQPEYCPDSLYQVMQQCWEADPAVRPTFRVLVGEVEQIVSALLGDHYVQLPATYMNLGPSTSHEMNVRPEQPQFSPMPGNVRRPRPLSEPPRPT
Sequence of UniProt O14757 (whole entry, looked up): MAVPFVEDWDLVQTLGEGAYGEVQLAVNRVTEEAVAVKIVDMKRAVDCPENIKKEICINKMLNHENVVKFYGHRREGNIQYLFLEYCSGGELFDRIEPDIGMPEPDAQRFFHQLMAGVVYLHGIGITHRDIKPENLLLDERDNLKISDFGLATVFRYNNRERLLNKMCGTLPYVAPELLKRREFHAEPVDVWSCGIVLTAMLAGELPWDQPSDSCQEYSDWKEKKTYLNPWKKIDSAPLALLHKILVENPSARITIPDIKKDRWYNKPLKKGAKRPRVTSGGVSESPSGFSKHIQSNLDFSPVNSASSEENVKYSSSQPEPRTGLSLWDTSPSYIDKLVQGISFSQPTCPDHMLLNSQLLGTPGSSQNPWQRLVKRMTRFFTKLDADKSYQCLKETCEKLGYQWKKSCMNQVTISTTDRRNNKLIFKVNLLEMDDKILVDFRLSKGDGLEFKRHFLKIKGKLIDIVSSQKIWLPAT
Sequence of UniProt Q16288 (whole entry, looked up): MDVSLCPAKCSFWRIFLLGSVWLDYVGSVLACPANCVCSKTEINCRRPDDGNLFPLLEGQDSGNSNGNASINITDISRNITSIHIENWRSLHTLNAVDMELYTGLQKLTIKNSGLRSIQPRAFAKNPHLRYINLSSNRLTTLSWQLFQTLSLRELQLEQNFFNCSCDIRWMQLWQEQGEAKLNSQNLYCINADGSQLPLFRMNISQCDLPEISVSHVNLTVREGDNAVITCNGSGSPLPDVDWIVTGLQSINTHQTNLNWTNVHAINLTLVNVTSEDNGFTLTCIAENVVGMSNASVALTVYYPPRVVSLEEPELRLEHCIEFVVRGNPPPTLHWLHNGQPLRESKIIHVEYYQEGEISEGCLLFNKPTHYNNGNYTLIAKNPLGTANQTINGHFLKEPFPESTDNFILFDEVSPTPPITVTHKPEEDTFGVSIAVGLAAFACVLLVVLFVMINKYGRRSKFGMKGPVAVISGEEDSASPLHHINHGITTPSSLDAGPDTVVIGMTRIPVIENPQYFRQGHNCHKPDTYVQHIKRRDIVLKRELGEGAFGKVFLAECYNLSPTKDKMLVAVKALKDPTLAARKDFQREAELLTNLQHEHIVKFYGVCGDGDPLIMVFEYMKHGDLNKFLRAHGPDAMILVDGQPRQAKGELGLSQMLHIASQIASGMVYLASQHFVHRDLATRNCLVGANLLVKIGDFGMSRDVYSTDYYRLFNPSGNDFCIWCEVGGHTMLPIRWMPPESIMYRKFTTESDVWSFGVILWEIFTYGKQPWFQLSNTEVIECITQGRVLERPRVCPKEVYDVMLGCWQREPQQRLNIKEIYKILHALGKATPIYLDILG

Block 1
Compound: NC(=O)c1ccc(N(C(N)=O)c2c(F)cccc2F)nc1-c1ccc(F)cc1F
Read-out: enzyme activity
Mode: inhibitor
Concentration: 0.5 µM
Baseline: control
BRSK1 (Homo sapiens, UniProt Q8TDC3) — remaining activity: 94.2%.
CAMK1G (Homo sapiens, UniProt Q96NX5) — remaining activity: 108%.
It gave 95.9% for remaining activity (NTRK3 (Homo sapiens, UniProt Q16288)).
For PRKD1 (Homo sapiens, UniProt Q15139): remaining activity read 97.7%.
It gave 86.4% for remaining activity (Aurora kinase A (AURKA, Homo sapiens, UniProt O14965)).

Block 2
Host: mouse
Medium: microsomes or S9
Concentration: 2 µM
Time: 0.5 h
`CCOc1ccc(C2=NNC(c3cccnc3)=Nc3ccc(CC)cc32)cc1OCC` has a remaining compound of 11.7%.
`COC(=O)C(O)c1c(C)nc2[nH]c3c(c2c1Cl)CCCC3` (stereo not drawn) gave a remaining compound of 3.25%.
For `Cc1ccc(S(=O)(=O)CCc2noc(C(=O)NCCc3ccc(S(N)(=O)=O)cc3)n2)cc1`, the remaining compound was 56.2%.
For `O=c1[nH]c(N2CCN(Cc3ccccc3)CC2)nc(O)c1Cc1ccccc1`, the remaining compound was 93.6%.
`CC(=O)Nc1cccc(NS(=O)(=O)c2c(C)nc(O)[nH]c2=O)c1` has a remaining compound of greater than 100%.
For `CC(=O)CC1c2ccc(Br)cc2NC(C)(C)C(=O)N1OCc1ccccc1` (stereo not drawn), the remaining compound was 96.5%.
`c1ccc2c(-c3ccc4[nH]ncc4c3)csc2c1` has a remaining compound of 57%.
`Cc1ccc(Nc2n[nH]c(N)c2S(=O)(=O)c2ccccc2)cc1` gave a remaining compound of 2.62%.

Block 3
Cell line: mouse MPNST tumor cells
Technique: high-content immunofluorescence imaging
Item: nuclear SOX9
Concentration: 10 µM
Time: 12 h
Notes: mean of 2 replicates
Baseline: DMSO control
Reading: higher = more nuclear SOX9
`CC1(C)S[C@@H]2[C@H](NC(=O)[C@H](N)c3ccccc3)C(=O)N2[C@H]1C(=O)O` — result for “nuclear SOX9 intensity”: 98.1 % of DMSO.
`COc1ccccc1C(=O)Nc1cccc(NC(=O)c2cccc(C)c2)c1`: “nuclear SOX9 intensity” 100 % of DMSO.
Under “nuclear SOX9 intensity”, `O=C1NCCN1c1ncc([N+](=O)[O-])s1` is recorded as 95.7 % of DMSO.
`COC(=O)[C@H](c1ccccc1Cl)N1CCc2sccc2C1` — result for “nuclear SOX9 intensity”: 114 % of DMSO and 112 % of DMSO.
For `CCCN(CCC)C(=O)C(CCC(=O)O)NC(=O)c1ccccc1` (stereo not drawn), “nuclear SOX9 intensity” read 100 % of DMSO.
Under “nuclear SOX9 intensity”, `CN(C)c1ccccc1CN1CCCN(Cc2ccccc2N(C)C)C1c1ccncc1` is recorded as 227 % of DMSO.

Block 4
Compound: Cn1nc(C(=O)NCc2ccc(C(=O)O)cc2)cc1-c1ccc2[nH]ccc2c1
Read-out: cell-free assay
Technique: competition with immobilised ligand
Concentration: 0.1 µM
For PIK3C3 (Homo sapiens, UniProt Q8NEB9): remaining binding read 93%.
The remaining binding was 100% (CDK7 (Homo sapiens, UniProt P50613)).
STK3 (Homo sapiens, UniProt Q13188) — remaining binding: 91%.
It gave 90% for remaining binding (CDK5 (Homo sapiens, UniProt Q00535)).
EGFR (Homo sapiens, UniProt P00533, del747-752/P753S) — remaining binding: 100%.
PIP5K1C (Homo sapiens, UniProt O60331) — remaining binding: 91%.
For PIP4K2B (Homo sapiens, UniProt P78356): remaining binding read 93%.
It gave 92% for remaining binding (EPHA5 (Homo sapiens, UniProt P54756)).
CHEK1 (Homo sapiens, UniProt O14757) — remaining binding: 83%.
ROCK1 (Homo sapiens, UniProt Q13464) — remaining binding: 93%.
The remaining binding was 75% (Tyrosine-protein kinase ABL1, phosphorylated (ABL1, Homo sapiens, UniProt P00519, M351T)).
For DCLK3 (Homo sapiens, UniProt Q9C098): remaining binding read 96%.
For HIPK2 (Homo sapiens, UniProt Q9H2X6): remaining binding read 97%.
It gave 77% for remaining binding (CDK17 (Homo sapiens, UniProt Q00537)).
The remaining binding was 100% (CDC42BPB (Homo sapiens, UniProt Q9Y5S2)).
MST1R (Homo sapiens, UniProt Q04912) — remaining binding: 100%.
For TIE1 (Homo sapiens, UniProt P35590): remaining binding read 93%.

Some of these lines once more (block 4):
ROCK1 (Homo sapiens, UniProt Q13464) — remaining binding: 93%.
The remaining binding was 100% (CDK7 (Homo sapiens, UniProt P50613)).
EGFR (Homo sapiens, UniProt P00533, del747-752/P753S) — remaining binding: 100%.
For PIP4K2B (Homo sapiens, UniProt P78356): remaining binding read 93%.
For HIPK2 (Homo sapiens, UniProt Q9H2X6): remaining binding read 97%.
For TIE1 (Homo sapiens, UniProt P35590): remaining binding read 93%.
